{"data": "Published values gathered from unrelated publications", "target": "Death-associated protein kinase 1 (DAPK1, Homo sapiens, UniProt P53355)", "note": "“And” joins repeats or separate records; there may be more than shown."}
{"Compound": "O=C=[N][Ru-4]123([n]4c5ccc(O)cc5c5c6c(c7cc(F)c[n+]1c7c54)C(=O)NC6=O)[S+]1CC[S+]2CC[S+]3CC1 (stereo not shown)", "test": "enzyme activity", "conditions": "100 nM, human enzyme, with: 10 µM ATP", "how to read": "reference: untreated", "quantity": "remaining activity", "value": "21%"}
{"Compound": "COc1ccc(NC(=O)Nc2ccc3c(c2)C(=O)N(C(C)CO)CC(C)C(CN(C)Cc2ccc4c(c2)OCO4)O3)cc1 (stereo not shown)", "test": "kinase activity, KinaseProfiler", "conditions": "0.03 µM, species human", "how to read": "reference: control", "quantity": "remaining activity", "value": "107%"}
{"Compound": "O=C(Cc1ccc(OCc2ccccc2)cc1)NC1(C(=O)O)CCN(C(=O)c2ccc(-c3cccc(Cl)c3)cc2)CC1", "test": "enzyme activity, inhibitor", "conditions": "10 µM", "quantity": "activity vs control", "value": "101%"}
{"Compound": "NC(=O)[C@@H](O)C[C@H]1CCc2sc3ncnc(O[C@H]4CC[C@H](N5CCOCC5)CC4)c3c21", "test": "enzyme activity, inhibitor", "conditions": "10 µM", "quantity": "inhibition", "value": "-3%"}
{"Compound": "Cc1nc2c(F)cc(-c3nc(Nc4ccc(CNC(=O)CCCCCCC(=O)NO)cc4)ncc3F)cc2n1C(C)C", "test": "enzyme activity, inhibitor", "conditions": "1 µM", "quantity": "inhibition", "value": "50%"}
{"Compound": "COc1cc(Nc2nccc(-c3cnn4nc(OC)ccc34)n2)cc(C(F)(F)F)c1", "test": "binding, competition with immobilised ligand", "conditions": "1 µM", "quantity": "remaining binding", "value": "88%"}
{"Compound": "COCC12C(=O)NC3C4(C(OC)CC1O)C1CC5(O)C(OC)C(O)C(OC(C)=O)(C1C5OC(=O)c1ccccc1)C3(O)C(OC)C24 (stereo not shown)", "test": "kinase activity, inhibitor, ProQinase kinase profiling", "conditions": "25 µM", "how to read": "reference: control", "quantity": "remaining activity", "value": "92% and 83%"}
{"Compound": "Nc1ncc(-c2cc(-c3cnn(CC(F)(F)F)c3)ncc2F)nc1C(=O)NC1CNCC(F)C1 (stereo not shown)", "test": "enzyme activity", "conditions": "1 µM", "how to read": "reference: DMSO control", "quantity": "remaining activity", "value": "130%"}
{"Compound": "Cc1cnc2nc1Nc1cccc(c1)COC/C=C/COCc1cc(ccc1OCCN1CCOCC1)N2", "test": "binding", "conditions": "0.1 µM", "quantity": "remaining binding", "value": "80%"}
{"Compound": "COc1ccc(O)cc1-c1c[nH]c2ncc(-c3cncc(C(=O)N(C)C)c3)cc12", "test": "binding, competition with immobilised ligand", "conditions": "0.2 µM", "quantity": "inhibition", "value": "-5.34%"}
{"Compound": "C=CC(=O)N1CCCC(n2c(=O)c3ncccc3n(Cc3ccc(Oc4ccccc4)cc3)c2=O)C1 (stereo not shown)", "test": "cell-free assay, competition with immobilised ligand", "conditions": "1 µM", "quantity": "remaining binding", "value": "100%"}
{"Compound": "C=CC(=O)N1CCc2ccc(-n3c(=O)ccc4cnc5ccc(-c6cnn(C)c6)cc5c43)cc21", "test": "KINOMEscan", "conditions": "1 µM", "how to read": "reference: DMSO control", "quantity": "remaining binding", "value": "66%"}
{"Compound": "C=CC(=O)Nc1cccc(-c2cnc3[nH]cc(C(=O)NC(C)(C)C)c3n2)c1", "test": "kinase activity", "conditions": "0.1 µM", "quantity": "inhibition", "value": "4% and 3%"}
{"Compound": "Cc1ccc(-c2c(/C=C(\\C#N)C(=O)NC(C)C)n(CCCO)c3ncnc(N)c23)cc1", "test": "cell-free assay, competition with immobilised ligand", "conditions": "1 µM", "quantity": "remaining binding", "value": "100%"}
{"Compound": "COc1c(Cl)cccc1Nc1c(-c2ccncc2C#C[C@@]2(C)CCCN2C(=O)/C=C/CN(C)C)[nH]c2c1C(=O)NCC2", "test": "binding, competition with immobilised ligand", "conditions": "3 µM", "quantity": "remaining binding", "value": "76%"}
{"Compound": "Cc1cccc(O[C@H]2CCC[C@@H](C(C)CNCc3ccncc3)C2)c1 (relative stereo)", "test": "enzyme activity, inhibitor", "conditions": "10 µM", "quantity": "inhibition", "value": "3%"}
{"note": "For quick reference, copied from above:"}
{"Compound": "COc1cc(Nc2nccc(-c3cnn4nc(OC)ccc34)n2)cc(C(F)(F)F)c1", "test": "binding, competition with immobilised ligand", "conditions": "1 µM", "quantity": "remaining binding", "value": "88%"}
{"Compound": "O=C=[N][Ru-4]123([n]4c5ccc(O)cc5c5c6c(c7cc(F)c[n+]1c7c54)C(=O)NC6=O)[S+]1CC[S+]2CC[S+]3CC1 (stereo not shown)", "test": "enzyme activity", "conditions": "100 nM, human enzyme, with: 10 µM ATP", "how to read": "reference: untreated", "quantity": "remaining activity", "value": "21%"}
